Assay results collected from several papers.
Protocols differ between the studies behind these lines. ± marks the error that the study gave.
B1: sufS 1-406 (Escherichia coli, UniProt P77444); chain MIFSVDKVRADFPVLSREVNGLPLAYLDSAASAQKPSQVIDAEAEFYRHGYAAVHRGIHTLSAQATEKMENVRKRASLFINARSAEELVFVRGTTEGINLVANSWGNSNVRAGDNIIISQMEHHANIVPWQMLCARVGAELRVIPLNPDGTLQLETLPTLFDEKTRLLAITHVSNVLGTENPLAEMITLAHQHGAKVLVDGAQAVMHHPVDVQALDCDFYVFSGHKLYGPTGIGILYVKEALLQEMPPWEGGGSMIATVSLSEGTTWTKAPWRFEAGTPNTGGIIGLGAALEYVSALGLNNIAEYEQNLMHYALSQLESVPDLTLYGPQNRLGVIAFNLGKHHAYDVGSFLDNYGIAVRTGHHCAMPLMAYYNVPAMCRASLAMYNTHEEVDRLVTGLQRIHRLLG
B2: Cacna1c 1647-1777 (Mus musculus, UniProt Q01815); sequence looked up; chain NALSLQAGLRTLHDIGPEIRRAISGDLTAEEELDKAMKEAVSAASEDDIFRRAGGLFGNHVTYYQSDSRGNFPQTFATQRPLHINKTGNNQADTESPSHEKLVDSTFTPSSYSSTGSNANINNANNTALGR
B3: Fhl2 (Mus musculus, UniProt O70433); sequence looked up; chain MTERFDCHHCNESLYGKKYILKEENPHCVACFEELYANTCEECGTPIGCDCKDLSYKDRHWHEGCFHCSRCGSSLVDKPFAAKEEQLLCTDCYSNEYSSKCQECKKTIMPGTRKMEYKGSSWHETCFTCQRCQQPIGTKSFIPKENQNFCVPCYEKQYALQCVQCKKPITTGGVTYREQPWHKECFVCTACKKQLSGQRFTARDEFPYCLTCFCDLYAKKCAGCTNPISGLGGTKYISFEERQWHNDCFNCKKCSLSLVGRGFLTERDDILCPDCGKDI
Chain of UniProt Q08874 (whole entry, looked up): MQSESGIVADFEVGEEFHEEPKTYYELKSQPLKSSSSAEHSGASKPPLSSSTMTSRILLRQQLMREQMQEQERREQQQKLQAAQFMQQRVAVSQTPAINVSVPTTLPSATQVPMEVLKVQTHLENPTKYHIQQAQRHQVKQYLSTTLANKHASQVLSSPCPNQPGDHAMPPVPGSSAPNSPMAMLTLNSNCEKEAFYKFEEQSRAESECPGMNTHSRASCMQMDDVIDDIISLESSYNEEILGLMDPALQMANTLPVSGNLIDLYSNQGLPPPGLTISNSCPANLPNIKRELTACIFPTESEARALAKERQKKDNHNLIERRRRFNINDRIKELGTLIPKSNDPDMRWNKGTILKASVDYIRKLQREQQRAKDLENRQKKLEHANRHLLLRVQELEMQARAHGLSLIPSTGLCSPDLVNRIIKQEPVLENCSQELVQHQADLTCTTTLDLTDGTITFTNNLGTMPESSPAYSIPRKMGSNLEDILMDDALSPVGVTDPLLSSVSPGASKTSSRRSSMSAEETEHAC
Chain of UniProt Q8WWM9 (whole entry, looked up): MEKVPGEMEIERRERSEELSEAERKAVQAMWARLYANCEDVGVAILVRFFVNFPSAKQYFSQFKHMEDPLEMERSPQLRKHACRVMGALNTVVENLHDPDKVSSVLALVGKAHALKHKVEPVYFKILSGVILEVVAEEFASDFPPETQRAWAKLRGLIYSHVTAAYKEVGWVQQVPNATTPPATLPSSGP
Chain of UniProt P38632 (whole entry, looked up): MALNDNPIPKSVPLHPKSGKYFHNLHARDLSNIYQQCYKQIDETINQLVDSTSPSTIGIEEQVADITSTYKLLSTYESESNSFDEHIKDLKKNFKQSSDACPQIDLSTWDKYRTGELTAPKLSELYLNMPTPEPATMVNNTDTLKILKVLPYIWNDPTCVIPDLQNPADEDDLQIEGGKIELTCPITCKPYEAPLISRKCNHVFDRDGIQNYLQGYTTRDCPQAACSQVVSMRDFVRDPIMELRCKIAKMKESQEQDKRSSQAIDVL
Chain of UniProt P47897 (whole entry, looked up): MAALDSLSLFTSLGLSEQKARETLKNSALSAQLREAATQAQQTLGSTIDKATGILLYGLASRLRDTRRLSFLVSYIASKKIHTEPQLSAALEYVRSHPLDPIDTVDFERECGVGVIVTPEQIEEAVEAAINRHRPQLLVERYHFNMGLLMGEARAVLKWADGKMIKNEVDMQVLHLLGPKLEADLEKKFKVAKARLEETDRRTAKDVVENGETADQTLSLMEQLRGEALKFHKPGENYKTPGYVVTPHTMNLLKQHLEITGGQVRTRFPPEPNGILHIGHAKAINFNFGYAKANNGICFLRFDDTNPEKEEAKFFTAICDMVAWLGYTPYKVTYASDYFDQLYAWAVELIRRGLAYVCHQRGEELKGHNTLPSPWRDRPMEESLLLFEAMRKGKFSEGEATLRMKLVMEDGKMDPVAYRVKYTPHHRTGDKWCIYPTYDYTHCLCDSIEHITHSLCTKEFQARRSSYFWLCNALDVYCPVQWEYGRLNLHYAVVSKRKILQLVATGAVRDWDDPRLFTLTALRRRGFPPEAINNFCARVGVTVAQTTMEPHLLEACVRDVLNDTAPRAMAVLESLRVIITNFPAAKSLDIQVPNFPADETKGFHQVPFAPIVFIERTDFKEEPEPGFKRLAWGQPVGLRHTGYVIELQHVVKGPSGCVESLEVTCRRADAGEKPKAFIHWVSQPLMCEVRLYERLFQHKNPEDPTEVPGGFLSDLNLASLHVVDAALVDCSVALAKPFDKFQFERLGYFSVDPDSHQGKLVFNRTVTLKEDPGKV
Chain of UniProt Q08431 (whole entry, looked up): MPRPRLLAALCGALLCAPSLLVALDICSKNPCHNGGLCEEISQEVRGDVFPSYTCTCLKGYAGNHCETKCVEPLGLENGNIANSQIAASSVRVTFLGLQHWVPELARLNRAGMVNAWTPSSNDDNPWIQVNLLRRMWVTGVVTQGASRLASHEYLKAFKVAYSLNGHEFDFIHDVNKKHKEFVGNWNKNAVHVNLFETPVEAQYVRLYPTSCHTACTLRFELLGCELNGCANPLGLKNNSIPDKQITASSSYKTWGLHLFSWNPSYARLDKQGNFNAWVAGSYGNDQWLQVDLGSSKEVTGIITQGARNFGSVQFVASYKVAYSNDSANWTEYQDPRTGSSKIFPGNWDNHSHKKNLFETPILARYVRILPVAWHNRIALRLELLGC
Chain of UniProt Q96AP0 (whole entry, looked up): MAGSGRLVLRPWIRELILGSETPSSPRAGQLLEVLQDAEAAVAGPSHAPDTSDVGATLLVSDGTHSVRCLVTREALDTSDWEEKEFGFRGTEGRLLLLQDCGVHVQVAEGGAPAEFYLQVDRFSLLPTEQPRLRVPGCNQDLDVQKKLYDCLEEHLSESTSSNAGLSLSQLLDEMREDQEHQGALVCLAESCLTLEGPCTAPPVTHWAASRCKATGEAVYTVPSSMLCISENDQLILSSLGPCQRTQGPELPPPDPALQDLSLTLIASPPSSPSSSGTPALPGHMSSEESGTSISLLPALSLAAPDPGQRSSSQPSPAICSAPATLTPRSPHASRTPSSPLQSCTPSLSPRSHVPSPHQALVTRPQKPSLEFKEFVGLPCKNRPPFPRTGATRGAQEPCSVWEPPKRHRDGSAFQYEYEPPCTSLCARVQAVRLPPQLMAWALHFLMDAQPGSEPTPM
Chain of UniProt P54791 (whole entry, looked up): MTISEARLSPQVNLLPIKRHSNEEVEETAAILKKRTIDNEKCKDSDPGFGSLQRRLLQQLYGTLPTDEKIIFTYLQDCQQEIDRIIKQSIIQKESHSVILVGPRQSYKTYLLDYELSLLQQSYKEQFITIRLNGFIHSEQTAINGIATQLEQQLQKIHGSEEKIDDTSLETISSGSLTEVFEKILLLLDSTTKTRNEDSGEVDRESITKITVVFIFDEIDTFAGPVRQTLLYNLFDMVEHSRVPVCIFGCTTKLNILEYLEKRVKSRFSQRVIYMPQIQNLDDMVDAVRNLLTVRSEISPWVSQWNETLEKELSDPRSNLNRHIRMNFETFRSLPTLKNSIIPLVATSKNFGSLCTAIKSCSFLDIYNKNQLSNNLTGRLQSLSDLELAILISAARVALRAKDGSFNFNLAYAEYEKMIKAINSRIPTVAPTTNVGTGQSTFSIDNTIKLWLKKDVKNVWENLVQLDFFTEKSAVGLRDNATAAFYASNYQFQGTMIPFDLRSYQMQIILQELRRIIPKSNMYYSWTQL
Chain of UniProt Q09312 (whole entry, looked up): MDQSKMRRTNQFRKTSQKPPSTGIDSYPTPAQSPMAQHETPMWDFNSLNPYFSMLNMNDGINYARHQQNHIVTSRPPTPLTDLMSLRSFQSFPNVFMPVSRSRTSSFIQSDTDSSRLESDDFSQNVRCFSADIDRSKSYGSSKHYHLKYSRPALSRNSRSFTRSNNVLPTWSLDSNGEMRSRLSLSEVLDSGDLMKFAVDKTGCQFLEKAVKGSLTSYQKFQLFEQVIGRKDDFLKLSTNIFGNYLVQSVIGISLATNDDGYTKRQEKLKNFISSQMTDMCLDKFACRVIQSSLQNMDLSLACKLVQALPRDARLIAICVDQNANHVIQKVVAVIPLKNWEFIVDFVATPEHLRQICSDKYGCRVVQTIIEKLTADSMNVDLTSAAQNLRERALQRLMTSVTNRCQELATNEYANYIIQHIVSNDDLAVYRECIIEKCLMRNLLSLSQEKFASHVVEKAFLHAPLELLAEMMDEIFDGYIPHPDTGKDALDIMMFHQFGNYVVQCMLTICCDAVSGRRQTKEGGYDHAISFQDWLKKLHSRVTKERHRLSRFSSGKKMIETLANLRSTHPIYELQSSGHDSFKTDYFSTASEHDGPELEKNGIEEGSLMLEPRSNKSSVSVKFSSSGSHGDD
Chain of UniProt P76194 (whole entry, unmodified, looked up): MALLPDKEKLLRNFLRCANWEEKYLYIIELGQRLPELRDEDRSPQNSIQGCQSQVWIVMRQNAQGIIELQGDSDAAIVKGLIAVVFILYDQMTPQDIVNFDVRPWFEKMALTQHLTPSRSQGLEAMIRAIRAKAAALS
Chain of UniProt Q7L1T6 (whole entry, looked up): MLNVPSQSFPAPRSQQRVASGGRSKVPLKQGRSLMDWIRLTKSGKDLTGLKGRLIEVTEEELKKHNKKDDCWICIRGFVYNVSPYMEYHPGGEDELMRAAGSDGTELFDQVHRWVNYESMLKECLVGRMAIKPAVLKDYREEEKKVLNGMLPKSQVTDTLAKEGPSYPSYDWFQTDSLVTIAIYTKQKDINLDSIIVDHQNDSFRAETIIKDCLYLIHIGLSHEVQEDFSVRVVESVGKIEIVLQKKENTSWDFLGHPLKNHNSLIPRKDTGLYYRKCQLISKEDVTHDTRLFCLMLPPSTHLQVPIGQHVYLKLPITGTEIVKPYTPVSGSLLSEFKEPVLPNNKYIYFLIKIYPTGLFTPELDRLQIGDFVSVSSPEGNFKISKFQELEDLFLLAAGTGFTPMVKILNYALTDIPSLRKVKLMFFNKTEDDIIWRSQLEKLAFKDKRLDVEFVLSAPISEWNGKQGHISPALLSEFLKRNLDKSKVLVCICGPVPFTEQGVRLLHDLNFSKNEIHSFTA
Chain of UniProt P09119 (whole entry, looked up): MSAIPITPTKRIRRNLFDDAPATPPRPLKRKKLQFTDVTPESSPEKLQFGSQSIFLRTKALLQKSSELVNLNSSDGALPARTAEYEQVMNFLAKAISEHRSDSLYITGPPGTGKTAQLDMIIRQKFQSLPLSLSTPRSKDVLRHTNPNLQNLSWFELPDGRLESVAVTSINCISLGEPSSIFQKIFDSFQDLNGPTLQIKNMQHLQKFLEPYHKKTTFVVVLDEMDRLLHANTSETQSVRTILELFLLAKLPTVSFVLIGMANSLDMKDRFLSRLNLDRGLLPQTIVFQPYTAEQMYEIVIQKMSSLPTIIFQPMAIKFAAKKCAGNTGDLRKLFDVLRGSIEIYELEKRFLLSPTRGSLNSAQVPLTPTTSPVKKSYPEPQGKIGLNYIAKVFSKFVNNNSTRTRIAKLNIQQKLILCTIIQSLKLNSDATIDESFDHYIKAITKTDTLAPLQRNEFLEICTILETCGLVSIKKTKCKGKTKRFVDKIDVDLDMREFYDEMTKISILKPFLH

| Molecule | tested on | assay | test system | setting | how to read | endpoint | result |
| --- | --- | --- | --- | --- | --- | --- | --- |
| LEIEPRNPKP (SOS1 proline-rich peptide, 1014-1023) | GRB2 1-58 (Homo sapiens, UniProt P62993) | NMR titration | peptide |  |  | chemical shift perturbation | 0.05 ppm |
| FGG (Homo sapiens, UniProt P02679) | VPS13D (Homo sapiens, UniProt Q5THJ4) | cross-linking MS |  | added: DSSO |  | cross-linked residues | K177 to K2055 |
| CYB5R4 (Homo sapiens, UniProt Q7L1T6) | CYGB (Homo sapiens, UniProt Q8WWM9) | NO dioxygenation |  | 750 nM, 37 °C, wild type, added: NADH 200 µM |  | time | < 50 s |
| POT1 T416A (Homo sapiens) | ACD (Homo sapiens, UniProt Q96AP0) | co-IP | HEK-293T | POT1 knockout | reference: wild-type POT1, higher = more TPP1 bound | relative binding | 0.91 |
| B1 (sufS 1-406) | sufE 1-138 C51A/E107C (Escherichia coli, UniProt P76194) | crystal structure |  |  |  | subunits per oligomer | 1 |
| sacituzumab | Tumor-associated calcium signal transducer 2 (Tacstd2, Mus musculus, UniProt Q8BGV3) | binding, bio-layer interferometry |  |  |  | Kd | no binding |
| QARS1 (Homo sapiens, UniProt P47897) | FLOT2 (Homo sapiens, UniProt Q14254) | cross-linking MS | cells | added: iqPIR |  | cross-linked residues | K366 to K421 |
| FGA (Homo sapiens, UniProt P02671) | DST (Homo sapiens, UniProt Q03001) | cross-linking MS |  | added: DSSO |  | cross-linked residues | K148 to K3995 |
| B2 (Cacna1c 1647-1777) | JPH2 1-446 (Homo sapiens, UniProt Q9BR39-1) | ITC |  |  |  | Kd | 5.64 µM |
| PMESGICTIV | human MAGI1-3/6 PDZ construct (MBP fusion) | automated holdup | peptide, crude extract | concentration not given, uncorrected, unit not given | reference: biotin control resin, higher = stronger binding | binding intensity | 0.119 |
| GPR39 (Homo sapiens, UniProt O43194) | FGA (Homo sapiens, UniProt P02671) | cross-linking MS |  | added: DSSO |  | cross-linked residues | K61 to K476 |
| NGVTKTILEARARVEKDYGK (gld-3 860-879 P869A (Caenorhabditis elegans, UniProt Q95ZK7); sequence looked up) | fbf-2 164-575 (Caenorhabditis elegans, UniProt Q09312) | fluorescence polarisation | peptide |  | reference: wild-type GLD-3, higher = weaker competition | competition | 2 fold |
| medin (Homo sapiens, UniProt Q08431) | amyloid-β fragment | Thioflavin T fluorescence |  | 20 µM, equimolar mixture | higher = slower aggregation | lag time | 6.5 h |
| Itpr1 domain 3 | BCL2L2 BH4 11-28 R11A, stapled, i+4 | pull-down |  | alanine scan | reference: parent peptide, higher = more binding | pull-down relative to parent peptide | < 50% |
| B3 (Fhl2) | Mitf (Mus musculus, UniProt Q08874) | co-IP | mouse heart lysates | endogenous | reference: saline-treated mice, higher = more interaction | relative co-IP signal | 5 fold |
| CREBBP KIX domain (Homo sapiens, UniProt Q92793) | KMT2A fragment, C-terminal Tyr (Homo sapiens) | competition with ligand, competitive fluorescence polarization |  |  |  | IC50 | > 8 µM |
| DYNC1H1 (Homo sapiens, UniProt Q14204) | NUMA1 1-705 (Homo sapiens, UniProt Q14980) | time-lapse imaging | Flp-In T-REx mitotic | nanomolar concentration, added: BI2536 |  | cortical dynein loss half-time | 20.7 min |
| MMS21 (Saccharomyces cerevisiae, UniProt P38632) | SMC5 (Saccharomyces cerevisiae, UniProt Q08204) | cross-linking MS |  | hits only |  | interaction screen | cross-linked |
| GCVRLHESCLGQQVPCCDPAATCYCYGRGDNDLRCYCR (designed binder) | ITGAV/ITGB3 U87MG cells (Homo sapiens) | competition, flow cytometry | designed binder, U87MG |  |  | IC50 | 0.023 ± 0.006 µM |
| CDC6 (Saccharomyces cerevisiae, UniProt P09119) | ORC4 (Saccharomyces cerevisiae, UniProt P54791) | cross-linking MS |  | hits only |  | interaction screen | cross-linked |
| FGB (Homo sapiens, UniProt P02675) | AK9 (Homo sapiens, UniProt Q5TCS8) | cross-linking MS |  | added: DSSO |  | cross-linked residues | K328 to K1766 |
| KERTHQQKKHSSYEDELSEVL (CHGA residues 70-90 (Bos taurus)) | PLAT mature, single-chain, DFP-inactivated (Homo sapiens) | radioligand binding | peptide | added: 100 µM peptide | reference: 125I-CgA binding without inhibitor, higher = stronger inhibition | inhibition of binding | 82% |
| ALB (Homo sapiens, UniProt P02768) | SPINK5 (Homo sapiens, UniProt Q9NQ38) | cross-linking MS |  | added: DSSO |  | cross-linked residues | K223 to K266 |
| DYNLRB1/DYNLL1/DYNLT1/DYNC1LI2/DYNC1I2/DYNC1H1 dynein-1 complex (Homo sapiens) | KASH5/HOOK3 chimera KASH5 CC, Hook3 LIC-BD, HaloTag | pull-down |  |  |  | Ka | < 1.6e+06 M⁻¹ |
| KIGGFGLATV | HLA class I histocompatibility antigen, A alpha chain, allele A*02:01 (Homo sapiens, UniProt P04439) | MHC class I stabilisation, flow cytometry | peptide, TAP2-knockout TISI monoallelic cells | 25 µM, 18 h, 37 °C, added: β2-microglobulin 3 µg/mL | reference: DMSO | HLA class I surface increase | 42.6% |
| GSGAGHETIV | human MAGI1-3/6 PDZ construct (MBP fusion) | automated holdup | peptide, crude extract | concentration not given, uncorrected, unit not given | reference: biotin control resin, higher = stronger binding | binding intensity | 0.296 |
| PDE4D3/GFP (Homo sapiens) | AKAP6 P1400S (Homo sapiens, UniProt Q13023-1) | co-IP | HEK293 | P1400S mutant, without stimulation | reference: normalised to mAKAP precipitated, higher = more PDE4D3 bound | relative binding | 3.28 |

Repeated from above:
| Molecule | tested on | assay | test system | setting | how to read | endpoint | result |
| --- | --- | --- | --- | --- | --- | --- | --- |
| medin (Homo sapiens, UniProt Q08431) | amyloid-β fragment | Thioflavin T fluorescence |  | 20 µM, equimolar mixture | higher = slower aggregation | lag time | 6.5 h |
| DYNC1H1 (Homo sapiens, UniProt Q14204) | NUMA1 1-705 (Homo sapiens, UniProt Q14980) | time-lapse imaging | Flp-In T-REx mitotic | nanomolar concentration, added: BI2536 |  | cortical dynein loss half-time | 20.7 min |
